Experimental data from different studies.
Protocols differ between the studies behind these lines. Values joined by “and” are separate records of one study, mostly repeats; a detail may differ. ± gives the spread as reported.

CC[C@H](C)[C@H](NC(=O)[C@H](CCCCN)NC(=O)CNC(=O)[C@H](CC(C)C)NC(=O)[C@H](Cc1ccccc1)NC(=O)[C@H](CCCCN)NC(=O)[C@H](CO)NC(=O)[C@H](Cc1ccccc1)NC(=O)[C@H](Cc1c[nH]c2ccccc12)NC(=O)[C@H](CCC(N)=O)NC(=O)[C@@H](NC(=O)[C@H](Cc1ccccc1)NC(=O)CCCCCNC(=O)CN1CCN(CC(=O)O)CCN(CC(=O)O)CCN(CC(=O)O)CC1)C(C)C)C(=O)N[C@@H](CCC(=O)O)C(=O)N1CCC[C@H]1C(=O)N[C@@H](CC(=O)O)C(=O)N[C@H](C(=O)N[C@@H](CO)C(=O)N[C@@H](CCC(N)=O)C(=O)N[C@H](C(=O)N[C@@H](CCC(N)=O)C(=O)N[C@@H](CC(=O)O)C(=O)N1CCC[C@H]1C(=O)N[C@@H](CC(N)=O)C(=O)N[C@@H](CC(=O)O)C(=O)N[C@@H](CCC(N)=O)C(=O)N[C@@H](Cc1ccc(O)cc1)C(=O)N[C@@H](CCC(=O)O)C(=O)N1CCC[C@H]1C(=O)N[C@@H](Cc1ccccc1)C(=O)O)C(C)C)C(C)C [copper-64 labelled]
tissue uptake (C57BL/6 mice, bone; vehicle, intratracheal instillation): 0.73 ± 0.1 %ID/g

CCCC[C@H]1C(=O)N(C)[C@@H](CCCC)C(=O)N[C@@H](CCCNC(=O)CN2CCN(CC(=O)O)CCN(CC(=O)O)CCN(CC(=O)O)CC2)C(=O)N[C@H](C(=O)NCC(N)=O)CSCC(=O)N[C@@H](Cc2ccc(O)cc2)C(=O)N(C)[C@@H](C)C(=O)N[C@@H](CC(N)=O)C(=O)N2CCC[C@H]2C(=O)N[C@@H](Cc2c[nH]cn2)C(=O)N[C@@H](CC(C)C)C(=O)N(C)CC(=O)N[C@@H](Cc2c[nH]c3ccccc23)C(=O)N[C@@H](CO)C(=O)N[C@@H](Cc2c[nH]c3ccccc23)C(=O)N1C [gallium-68 labelled]
tissue uptake (NOD/SCID mice with CHO-hPD-L1 xenograft, blood; 30 min post injection): 9.84 ± 0.53 %ID/g

N#[11C]c1ccc(-c2csc(NN=C3CCCC3)n2)cc1
uptake in large intestine with contents (C57BL/6 mouse, male; intravenous, 3 MBq, 30 min): 1.46 ± 0.3 %ID/g

CCCCCCCCCCCCCCCC(=O)NCCCC[C@H](NC(=O)[C@H](CCC(=O)O)NC(=O)[C@H](Cc1ccc(O)cc1)NC(=O)[C@H](CCC(=O)O)NC(=O)COCC(=O)NCCCOCCOCCOCCCNC(=O)[C@H](Cc1ccccc1)NC(=O)[C@H](CC(N)=O)NC(=O)[C@H](Cc1c[nH]cn1)NC(=O)[C@@H](NC(=O)[C@H](CC(=O)O)NC(=O)[C@H](CCC(N)=O)NC(=O)[C@H](CC(C)C)NC(=O)[C@H](CCCCN)NC(=O)[C@H](CCCCN)NC(=O)[C@H](CCCNC(=N)N)NC(=O)[C@H](CC(C)C)NC(=O)[C@H](Cc1c[nH]c2ccccc12)NC(=O)[C@H](CCC(=O)O)NC(=O)[C@@H](NC(=O)[C@H](CCCNC(=N)N)NC(=O)[C@H](CCC(=O)O)NC(=O)[C@H](CCSC)NC(=O)[C@H](CO)NC(=O)[C@H](CC(N)=O)NC(=O)[C@H](CC(C)C)NC(=O)[C@H](Cc1c[nH]cn1)NC(=O)[C@H](CCCCN)NC(=O)CNC(=O)[C@H](CC(C)C)NC(=O)[C@H](CC(N)=O)NC(=O)[C@H](Cc1c[nH]cn1)NC(=O)[C@H](CCSC)NC(=O)[C@H](CC(C)C)NC(=O)[C@H](CCC(N)=O)NC(=O)[C@@H](NC(=O)[C@H](CCC(=O)O)NC(=O)[C@H](CO)NC(=O)[C@@H](NC(=O)[C@@H](N)CO)C(C)C)[C@@H](C)CC)C(C)C)C(C)C)C(=O)N[C@@H](CCC(=O)O)C(=O)N[C@@H](Cc1ccc(O)cc1)C(=O)N[C@@H](CCC(=O)O)C(N)=O
plasma concentration (ELISA; female CD-1 mice, blood plasma; subcutaneous, 10 nmol/kg, 1 h): 28.1 nM

CC(C)[C@@H]1NC(=O)CNC(=O)[C@H](CC(N)=O)NC(=O)[C@H](CCCNC(=N)N)NC(=O)[C@H](Cc2ccc(O)cc2)NC(=O)[C@H](C(C)C)NC(=O)[C@@H](NC(=O)[C@@H](NC(=O)[C@H](CC(N)=O)NC(=O)[C@H](Cc2c[nH]c3ccccc23)NC(=O)[C@H](C)NC(=O)[C@H](Cc2ccccc2)NC(=O)CNC(=O)[C@H](CCCCN)NC(=O)[C@H](Cc2ccccc2)NC(=O)[C@H](Cc2ccccc2)NC(=O)[C@H](CCCCN)NC(=O)OCC2c3ccccc3-c3ccccc32)C(C)C)CSSC[C@@H](C(=O)N[C@@H](Cc2c[nH]cn2)C(=O)N[C@@H](CCCNC(=N)N)C(=O)N[C@@H](CCCNC(=N)N)C(=O)N[C@@H](C)C(=O)N[C@@H](CC(N)=O)C(N)=O)NC(=O)[C@H](C(C)C)NC(=O)[C@H](CCCNC(=N)N)NC1=O
mean corpuscular volume (ICR mice, blood; intraperitoneal, 5 mg/kg, day 5): 40.9 ± 1.17 fL

CSCC[C@H](NC(=O)[C@@H](NC(=O)[C@H](CC(C)C)NC(=O)[C@@H](NC(=O)[C@H](Cc1c[nH]cn1)NC(=O)CCCCCNC(=O)[C@H](CCCNC(=N)N)NC(=O)[C@H](CCCNC(=N)N)NC(=O)[C@H](CCCNC(=N)N)NC(=O)[C@H](CCC(N)=O)NC(=O)[C@H](CCCNC(=N)N)NC(=O)[C@H](CCCNC(=N)N)NC(=O)[C@H](CCCCN)NC(=O)[C@H](CCCCN)NC(=O)[C@H](CCCNC(=N)N)NC(=O)CNC(=O)[C@@H](N)Cc1ccc(O)cc1)C(C)C)C(C)C)C(=O)N[C@@H](CS)C(=O)N[C@@H](C)C(=O)N[C@H](C(N)=O)[C@@H](C)O
serum Triglycerides (C57BL/6J mice; Alzet osmotic pump, 3 mg/kg, 8 weeks): 167 mg/dL and 106 mg/dL and 68 mg/dL

C/C(=N\OCCCN1CCCCC1)c1ccc(C(F)(F)F)cc1
brain concentration (C57BL/6 mouse, brain; oral, 10 mg/kg, 4 h): 2610 ± 285 ng/g

CC(C)(CCCC/C=C/CCCCCC(C)(C)C(=O)O)C(=O)O
plasma concentration (ICR mice, both sexes; oral, dose not given, 0.083 h): 21500 ng/mL

Cc1ccccc1-c1ccc(-c2nc(-c3ccc(CN(C)CCCC(=O)O)c([18F])c3)no2)cc1C(F)(F)F
tracer uptake (rat, liver; 2 h): 2.15 %ID/g

C[C@H](O)[C@@H](NC(=O)[C@H]1CCCN1C(=O)[C@@H](CCCCN)NC(=O)[C@@H](CO)NC(=O)[C@@H](Cc1ccc(O)cc1)NC(=O)[C@@H](CC(N)=O)NC(=O)CCOCCOCCOCCNC(=O)CN1CCN(CC(=O)O)CCN(CC(=O)O)CCN(CC(=O)O)CC1)C(=O)N[C@H](CC(=O)O)C(=O)N[C@H](CCCNC(=N)N)C(=O)N[C@H](CCC(N)=O)C(=O)N[C@H](Cc1ccc(O)cc1)C(=O)N[C@H](Cc1c[nH]cn1)C(=O)N[C@H](Cc1ccccc1)C(N)=O [copper-64 labelled]
tissue uptake (C57BL/6J mice, spleen; intravenous, 1.85 MBq, 0.6667 h, radiolabelled): 1.27 ± 1.32 %ID/g

CCCCCCCCCCCCCCCC(=O)N[C@@H](CCC(=O)NCCOCCOCCC(=O)NCCOCCOCCC(=O)NCCCC[C@H](NC(=O)[C@H](CC(=O)O)NC(=O)[C@H](CC(C)C)NC(=O)[C@H](Cc1ccc(O)cc1)NC(=O)[C@H](CCCCN)NC(=O)[C@H](CO)NC(=O)[C@H](Cc1ccc(O)cc1)NC(=O)[C@H](CC(=O)O)NC(=O)[C@H](CO)NC(=O)[C@@H](NC(=O)[C@H](Cc1ccccc1)NC(=O)[C@@H](NC(=O)CNC(=O)[C@H](CCC(N)=O)NC(=O)[C@@H](CO)NC(=O)[C@@H](N)Cc1c[nH]cn1)[C@@H](C)O)[C@@H](C)O)C(=O)N[C@@H](CCCNC(=N)N)C(=O)N[C@@H](CCCNC(=N)N)C(=O)N[C@@H](C)C(=O)N[C@@H](CCC(N)=O)C(=O)N[C@@H](CC(=O)O)C(=O)N[C@@H](Cc1ccccc1)C(=O)N[C@H](C(=O)N[C@@H](CCC(N)=O)C(=O)N[C@@H](Cc1c[nH]c2ccccc12)C(=O)N[C@@H](CC(C)C)C(=O)N[C@@H](CC(C)C)C(=O)N[C@@H](CC(N)=O)C(=O)N[C@H](C(=O)NCC(=O)NCC(=O)N1CCC[C@H]1C(=O)N[C@@H](CO)C(=O)N[C@@H](CO)C(=O)NCC(=O)N[C@@H](C)C(=O)N1CCC[C@H]1C(=O)N1CCC[C@H]1C(=O)N1CCC[C@H]1C(=O)N[C@@H](CO)C(N)=O)[C@@H](C)O)C(C)C)C(=O)O
MRT (rhesus monkey, both sexes, plasma; subcutaneous, 20 µg/kg, multiple doses, day 7): 4.72 ± 0.386 h

N=C(N)NCCC[C@@H](NC(=O)[C@H](N)Cc1c[nH]c2ccccc12)C(=O)N[C@H](CCCCN)C(=O)N[C@H](Cc1c[nH]c2ccccc12)C(=O)N[C@H](CCCNC(=N)N)C(=O)N[C@H](CCCCN)C(=O)N[C@H](Cc1c[nH]c2ccccc12)C(=O)N[C@H](CCCNC(=N)N)C(=O)N[C@H](CCCCN)C(=O)N[C@H](Cc1c[nH]c2ccccc12)C(=O)N[C@H](CCCNC(=N)N)C(=O)N[C@H](CCCCN)C(N)=O
survival (mouse; intraperitoneal, 30 mg/kg single dose, day 7): 100%

COc1cccc2c1C(=O)c1c(O)c3c(c(O)c1C2=O)CC(O)(C(=O)CO)CC3OC1CC(NC(=O)OC2C=CCCC(C)(C(=O)NCC(=O)O)CC2)C(O)C(C)O1 (centres unmarked)
concentration (female C57BL/6 mouse, plasma; intravenous, 43 mg/kg doxorubicin equivalents, 19 day): 1330 ng/mL

O=C1NC2(CC2)COc2ncc(F)cc2[C@H]2COCCN2c2ccn3ncc1c3n2
mean corpuscular haemoglobin (Sprague-Dawley rat, male, blood; oral, 5 mg/kg/day, 4 weeks, end of treatment, subacute toxicity): 20 ± 1.2 pg

CC[C@H](C)[C@H](NC(=O)CNC(=O)[C@H](CC(C)C)NC(=O)[C@H](Cc1ccccc1)NC(=O)CN)C(=O)N[C@@H](CC(C)C)C(=O)N[C@@H](Cc1ccccc1)C(=O)N[C@@H](Cc1c[nH]cn1)C(=O)NCC(=O)N[C@H](C(=O)N[C@@H](Cc1c[nH]cn1)C(=O)N[C@@H](Cc1c[nH]cn1)C(=O)NCC(=O)N[C@@H](CCCNC(=N)N)C(=O)N[C@@H](CCCCN)C(=O)N[C@@H](CCCCN)C(=O)N[C@@H](C)C(=O)N[C@@H](CC(C)C)C(=O)N[C@@H](Cc1c[nH]cn1)C(=O)N[C@@H](CCSC)C(=O)N[C@@H](CC(N)=O)C(=O)N[C@@H](CO)C(=O)N[C@@H](CCC(=O)O)C(=O)N[C@@H](CCCNC(=N)N)C(=O)N[C@@H](CCCNC(=N)N)C(=O)N[C@@H](CO)C(=O)O)C(C)C
acute toxic concentration (zebrafish embryos 4 hpf, E3 medium; 1 h): 25 µM

CCCC[C@@H]1NC(=O)[C@H](Cc2ccc(O)cc2)NC(=O)[C@@H]2CCCN2C(=O)[C@H](CC(=O)O)NC(=O)[C@H](C)NC(=O)[C@H](Cc2ccccc2)NC(=O)[C@@H]2CSCCC(=O)N3CN(CN(C3)C(=O)CCSC[C@@H](C(=O)N[C@@H](C)C(N)=O)NC1=O)C(=O)CCSC[C@H](NC(C)=O)C(=O)N[C@@H](CC(C)(C)C)C(=O)N1CCC[C@H]1C(=O)N[C@@H](CCC(=O)O)C(=O)N[C@H](CCCCNC(=O)CCc1cn(CCOCCOCCOCCN(CCOCCOCCOCCC(=O)N[C@H]3CSCCC(=O)N4CN5CN(C4)C(=O)CCSC[C@H](NC(=O)[C@@H](CC(=O)O)NC(=O)[C@H](Cc4cccc6ccccc46)NC(=O)[C@@H]4CCCN4C3=O)C(=O)N[C@@H](CCSC)C(=O)N[C@@H](CCCCNC(=N)N)C(=O)N[C@@H](CC(=O)O)C(=O)N[C@@H](Cc3c[nH]c4ccccc34)C(=O)N[C@@H](CO)C(=O)N[C@@H]([C@@H](C)O)C(=O)N3CCC[C@H]3C(=O)N3C[C@H](O)C[C@H]3C(=O)N[C@@H](Cc3c[nH]c4ccccc34)C(=O)N[C@H](C(N)=O)CSCCC5=O)CCOCCOCCOCCn3cc(CCC(=O)NCCCC[C@H]4NC(=O)[C@H](CCC(=O)O)NC(=O)[C@@H]5CCCN5C(=O)[C@H](CC(C)(C)C)NC(=O)[C@@H](NC(C)=O)CSCCC(=O)N5CN6CN(C5)C(=O)CCSC[C@H](NC(=O)[C@H](Cc5ccc(O)cc5)NC(=O)[C@@H]5CCCN5C4=O)C(=O)N[C@@H](Cc4ccccc4)C(=O)N[C@@H](C)C(=O)N[C@@H](CC(=O)O)C(=O)N4CCC[C@H]4C(=O)N[C@@H](Cc4ccc(O)cc4)C(=O)N[C@@H](CCCC)C(=O)N[C@H](C(=O)N[C@@H](C)C(N)=O)CSCCC6=O)nn3)nn1)C(=O)N1CCC[C@H]1C(=O)N[C@@H](Cc1ccc(O)cc1)C(=O)N2
CL (CD-1 mouse): 16 ± 5 mL/min/kg

CN1Cc2cc(Cl)ccc2-n2c(nnc2C2CCN(c3cccc([18F])n3)CC2)C1
tissue uptake (C57BL/6 mouse male, lung; intravenous, dose not given, 30 min, added: blocking agent 10 mg/kg): 5.82 ± 1.35 %ID/g

Excerpt of the above:
CC(C)(CCCC/C=C/CCCCCC(C)(C)C(=O)O)C(=O)O
plasma concentration (ICR mice, both sexes; oral, dose not given, 0.083 h): 21500 ng/mL

N#[11C]c1ccc(-c2csc(NN=C3CCCC3)n2)cc1
uptake in large intestine with contents (C57BL/6 mouse, male; intravenous, 3 MBq, 30 min): 1.46 ± 0.3 %ID/g

N=C(N)NCCC[C@@H](NC(=O)[C@H](N)Cc1c[nH]c2ccccc12)C(=O)N[C@H](CCCCN)C(=O)N[C@H](Cc1c[nH]c2ccccc12)C(=O)N[C@H](CCCNC(=N)N)C(=O)N[C@H](CCCCN)C(=O)N[C@H](Cc1c[nH]c2ccccc12)C(=O)N[C@H](CCCNC(=N)N)C(=O)N[C@H](CCCCN)C(=O)N[C@H](Cc1c[nH]c2ccccc12)C(=O)N[C@H](CCCNC(=N)N)C(=O)N[C@H](CCCCN)C(N)=O
survival (mouse; intraperitoneal, 30 mg/kg single dose, day 7): 100%
